Results from different studies.
Compare with care: the assays were run in different laboratories. Numbers after ± are the reported error. In brackets after ≈: the same amount, converted by molar mass.
Organism: Staphylococcus aureus

Compound	assay	test system	conditions	how to read	measurement	value
CC[C@H](C)[C@H](NC(=O)[C@H](CCCCN)NC(=O)[C@H](CCCCN)NC(=O)[C@H](CC(C)C)NC(=O)[C@H](CCCCN)NC(=O)[C@H](CCC(=O)O)NC(=O)[C@H](CCCCN)NC(=O)[C@@H](NC(=O)[C@H](CCCCN)NC(=O)[C@H](CC(N)=O)NC(=O)[C@H](CCCNC(=N)N)NC(=O)[C@H](Cc1ccccc1)NC(=O)[C@H](CCCCN)NC(=O)[C@H](CCCNC(=N)N)NC(=O)[C@H](CC(C)C)NC(=O)[C@H](CCCNC(=N)N)NC(=O)[C@H](CCCCN)NC(=O)[C@H](CCCNC(=N)N)NC(=O)[C@H](CC(C)C)NC(=O)[C@@H](N)CC(C)C)[C@@H](C)CC)C(=O)NCC(=O)N[C@@H](CCC(N)=O)C(=O)N[C@@H](CCCCN)C(=O)N[C@H](C(=O)N[C@@H](CCC(N)=O)C(=O)NCC(=O)N[C@@H](Cc1ccccc1)C(=O)N[C@H](C(=O)N1CCC[C@H]1C(=O)N[C@@H](CCCCN)C(=O)N[C@@H](CC(C)C)C(=O)N[C@H](C(=O)N1CCC[C@H]1C(=O)N[C@@H](CCCNC(=N)N)C(=O)N[C@H](C(=O)N[C@@H](CCC(=O)O)C(=O)N[C@@H](CO)C(=O)O)[C@@H](C)O)C(C)C)C(C)C)[C@@H](C)CC	inhibition zone	penicillin-resistant P1383			lethal concentration	1.74 µM
C=Cc1cc(OC)c2c(c1)c(=O)oc1c2cc(OC)c2c(O)ccc([C@@H]3O[C@H](C)[C@H](O)[C@@](C)(O)[C@H]3O)c21		MRSA USA300, mouse epicutaneous infection	3 mg/kg, day 6		bacterial burden decrease	~4.8 log10 per wound
Oc1cc(F)ccc1Oc1ccccc1		RN4220	4 x MIC, 1 h exposure, 37 °C		post-antibiotic effect	0.25 h
S=C(NCc1ccccn1)NCc1ccccn1	microbial growth, well diffusion		10 µg/mL		inhibition zone	12 mm
CC(CCC(=O)[O-])C1CCC2C3CCC4CC(O)CCC4(C)C3CC(O)C12C.C[N+](C)(C)CC(O)CC(=O)O (stereo not drawn)		TISTR 746	1 mg per disc, 18 to 24 h, 37 °C, 6 mm disc		inhibition zone diameter	10.8 ± 2.5 mm
Cc1cc(=O)nc(NC(=O)NCCCCCCNC(=O)NCCCCCCNC(=O)OCCOCCOCCOCCOCCOCCOCC(=O)N[C@@H](CC(C)C)C(=O)N[C@@H](CCCCN)C(=O)N[C@@H](CC(C)C)C(=O)N[C@@H](CC(C)C)C(=O)N[C@@H](CCCCN)C(=O)N[C@@H](CCCCN)C(=O)N[C@@H](CC(C)C)C(=O)N[C@@H](CC(C)C)C(=O)N[C@@H](CCCCN)C(=O)N[C@@H](CCCCN)C(=O)N[C@@H](CC(C)C)C(=O)N[C@@H](CC(C)C)C(=O)N[C@@H](CCCCN)C(=O)N[C@@H](CC(C)C)C(=O)N[C@@H](CC(C)C)C(N)=O)[nH]1		MSSA RN 4220, RPMI medium	24 h, 37 °C		LC99.9	3.7 µM
CC[C@H](C)[C@@H]1NC(=O)CNC(=O)CNC(=O)[C@H](CO)NC(=O)[C@H]([C@@H](C)CC)NC(=O)[C@H](CCCCN)NC(=O)[C@H](CO)NC(=O)[C@H](CC(C)C)NC(=O)[C@@H](C(C)C)NC(=O)[C@@H]2CCCN2C(=O)[C@H]([C@@H](C)CC)NC(=O)[C@H](C(C)C)NC(=O)[C@H](CC(C)C)NC(=O)[C@@H]2CCCN2C(=O)CNC1=O		ATCC 25923	MIC, 2 h		log reduction in CFU	3 log
NCCCC[C@H](NC(=O)[C@H](CCCCN)NC(=O)[C@H](Cc1ccccc1)NC(=O)[C@@H]1CCCN1C(=O)[C@H](Cc1c[nH]c2ccccc12)NC(=O)[C@H](Cc1c[nH]c2ccccc12)NC(=O)[C@H](Cc1c[nH]c2ccccc12)NC(=O)[C@@H]1CCCN1C(=O)[C@H](Cc1ccccc1)NC(=O)[C@H](CCCCN)NC(=O)[C@@H](N)CCCCN)C(N)=O		MSSA RN 4220, RPMI medium	24 h, 37 °C		LC99.9	30 µM
CC(=O)N[C@H]1CNC(=O)[C@H](Cc2ccccc2)NC(=O)[C@H](Cc2ccccc2)NC(=O)COCCOCCNC1=O	reporter gene	AH1747	10 µM	baseline: DMSO	AgrC activity	inactive
CCc1[nH]c(C(=O)N[C@@H]2CCN(c3nnc(C(C)(C)O)s3)C[C@@H]2OC)nc1Cl		MRSA ATCC 43300, mice, sepsis model	intragastric, 10 mg/kg, day 3		survival	50%
CCOC(=O)c1cnc(N/N=C/c2c(-c3ccc(F)cc3)nc3ncccn23)s1	microbial growth, well diffusion	ATCC23235	100 µg/mL		inhibition zone	12 mm
c1ccc(CN2CCOCCOCCN(CCCCCCCCCCCCN3CCOCCOCCN(CCCCCCCCCCCCN4CCOCCOCCN(Cc5ccccc5)CCOCCOCC4)CCOCCOCC3)CCOCCOCC2)cc1	ethidium bromide activity	1199B	half MIC, with: ethidium bromide	baseline: ethidium bromide alone	fold enhancement	8 fold
Fc1cc2nc3c4cccnc4c4ncccc4c3nc2cc1F.[Cl-].[Cl-].[Ru+2].c1ccncc1.c1ccncc1.c1ccncc1.c1ccncc1		MRSA ATCC 43300	10 µM, 20 min, with: light 470 nm		CFU reduction	> 4 log CFU
O=C(c1ccccc1O)c1[nH]c(Cl)c(Cl)c1-n1c(C(=O)c2ccccc2O)cc(Cl)c1Cl	BCECF-AM	NCTC 8325	1 × MIC, 10 min		intracellular pH decrease	0.3 pH units
CC[C@H](C)[C@H](NC(=O)[C@H](CCCCN)NC(=O)[C@H](CCCCN)NC(=O)[C@H](CC(C)C)NC(=O)[C@H](CCCCN)NC(=O)[C@H](CCC(=O)O)NC(=O)[C@H](CCCCN)NC(=O)[C@@H](NC(=O)[C@H](CCCCN)NC(=O)[C@H](CC(N)=O)NC(=O)[C@H](CCCNC(=N)N)NC(=O)[C@H](Cc1ccccc1)NC(=O)[C@H](CCCCN)NC(=O)[C@H](CCCNC(=N)N)NC(=O)[C@H](CC(C)C)NC(=O)[C@H](CCCNC(=N)N)NC(=O)[C@H](CCCCN)NC(=O)[C@H](CCCNC(=N)N)NC(=O)[C@@H](N)CC(C)C)[C@@H](C)CC)C(=O)NCC(=O)N[C@@H](CCC(N)=O)C(=O)N[C@@H](CCCCN)C(=O)N[C@H](C(=O)N[C@@H](CCC(N)=O)C(=O)NCC(=O)N[C@@H](Cc1ccccc1)C(=O)N[C@H](C(=O)N1CCC[C@H]1C(=O)N[C@@H](CCCCN)C(=O)N[C@@H](CC(C)C)C(=O)O)C(C)C)[C@@H](C)CC	inhibition zone	penicillin-resistant P1383			lethal concentration	1.35 µM
CC(C)C[C@H](NC(=O)[C@H](CC(=O)O)NC(=O)[C@H](CO)NC(=O)[C@@H](NC(=O)[C@H](CCC(=O)O)NC(=O)[C@H](CC(=O)O)NC(=O)[C@@H]1CCCN1C(=O)[C@@H](N)CC(C)C)C(C)C)C(=O)N[C@@H](CCC(=O)O)C(=O)O	OD600	ATCC 25923	concentration not given, 18 to 22 h, 37 °C, unheated		growth inhibition	36.4%
CC[C@H](C)[C@@H]1NC(=O)[C@H](CCC(N)=O)NC(=O)[C@H](CCC(=O)O)NC(=O)[C@H](CCC(=O)O)NC(=O)[C@H](CCCCN)NC(=O)[C@@H]2CCCN2C(=O)[C@H](CC(C)C)NC(=O)[C@@H](NC(=O)[C@@H](N)CO)CSSC[C@@H](C(=O)N[C@@H](CCCNC(=N)N)C(=O)N[C@@H](CCCNC(=N)N)C(=O)N[C@@H](CCCCN)C(=O)N[C@@H](CCCCN)C(=O)O)NC(=O)[C@H](CCCCN)NC(=O)[C@H](CCCNC(=N)N)NC(=O)CNC(=O)[C@H](CCCNC(=N)N)NC(=O)[C@H]([C@@H](C)O)NC(=O)[C@H](CO)NC(=O)[C@H](CCCCN)NC(=O)CNC1=O		ATCC 8530	MBC, 2 h, pH 7.4, 37 °C, with: Escherichia coli K-235 LPS, peptide:LPS 1:10 w/w		antibacterial activity	inhibited
CCCCc1ccc(-c2nc(C)c(C(C)=NNC(=N)N)s2)cc1		NRS37 VISA			MBC	2.6 µg/mL (≈ 7.89 µM)
[Ag+].[S-]c1ccccn1.c1ccc(P(c2ccccc2)c2ccccc2)cc1.c1ccc(P(c2ccccc2)c2ccccc2)cc1		MTCC 740	50 mg/mL, 18 to 24 h		inhibition zone diameter	inactive
CC[C@H](C)[C@H](NC(=O)[C@H](CCCN)NC(=O)[C@H](CC(N)=O)NC(=O)[C@H](Cc1c[nH]c2ccccc12)NC(=O)[C@H](Cc1ccccc1)NC(=O)[C@H](CCCN)NC(=O)[C@H](CCCCNC(=N)N)NC(=O)[C@H](CC(C)C)NC(=O)[C@H](Cc1c[nH]c2ccccc12)NC(=O)[C@H](CCCN)NC(=O)[C@H](CCCCNC(=N)N)NC(=O)[C@H](CC(C)C)NC(=O)CNC(C)=O)C(=O)N[C@@H](CCCN)C(=O)N[C@@H](CCCCNC(=N)N)C(N)=O			1/2 x MIC, established biofilm		biofilm cells killed	> 50%
CC(=NNC(=N)N)c1nnn(-c2ccc(C#CC3(O)CCCCC3)cc2)c1C		WI-38, MRSA NRS384 USA300		baseline: WI-38 IC50 over MIC	selectivity index	17.5

Repeated from above:
Compound	assay	test system	conditions	how to read	measurement	value
CC[C@H](C)[C@H](NC(=O)[C@H](CCCN)NC(=O)[C@H](CC(N)=O)NC(=O)[C@H](Cc1c[nH]c2ccccc12)NC(=O)[C@H](Cc1ccccc1)NC(=O)[C@H](CCCN)NC(=O)[C@H](CCCCNC(=N)N)NC(=O)[C@H](CC(C)C)NC(=O)[C@H](Cc1c[nH]c2ccccc12)NC(=O)[C@H](CCCN)NC(=O)[C@H](CCCCNC(=N)N)NC(=O)[C@H](CC(C)C)NC(=O)CNC(C)=O)C(=O)N[C@@H](CCCN)C(=O)N[C@@H](CCCCNC(=N)N)C(N)=O			1/2 x MIC, established biofilm		biofilm cells killed	> 50%
